Measured values pooled from the literature.
“And” joins repeats or separate records; there may be more than shown. ± gives the spread as reported.
UniProt P35579, sequence (whole entry, looked up): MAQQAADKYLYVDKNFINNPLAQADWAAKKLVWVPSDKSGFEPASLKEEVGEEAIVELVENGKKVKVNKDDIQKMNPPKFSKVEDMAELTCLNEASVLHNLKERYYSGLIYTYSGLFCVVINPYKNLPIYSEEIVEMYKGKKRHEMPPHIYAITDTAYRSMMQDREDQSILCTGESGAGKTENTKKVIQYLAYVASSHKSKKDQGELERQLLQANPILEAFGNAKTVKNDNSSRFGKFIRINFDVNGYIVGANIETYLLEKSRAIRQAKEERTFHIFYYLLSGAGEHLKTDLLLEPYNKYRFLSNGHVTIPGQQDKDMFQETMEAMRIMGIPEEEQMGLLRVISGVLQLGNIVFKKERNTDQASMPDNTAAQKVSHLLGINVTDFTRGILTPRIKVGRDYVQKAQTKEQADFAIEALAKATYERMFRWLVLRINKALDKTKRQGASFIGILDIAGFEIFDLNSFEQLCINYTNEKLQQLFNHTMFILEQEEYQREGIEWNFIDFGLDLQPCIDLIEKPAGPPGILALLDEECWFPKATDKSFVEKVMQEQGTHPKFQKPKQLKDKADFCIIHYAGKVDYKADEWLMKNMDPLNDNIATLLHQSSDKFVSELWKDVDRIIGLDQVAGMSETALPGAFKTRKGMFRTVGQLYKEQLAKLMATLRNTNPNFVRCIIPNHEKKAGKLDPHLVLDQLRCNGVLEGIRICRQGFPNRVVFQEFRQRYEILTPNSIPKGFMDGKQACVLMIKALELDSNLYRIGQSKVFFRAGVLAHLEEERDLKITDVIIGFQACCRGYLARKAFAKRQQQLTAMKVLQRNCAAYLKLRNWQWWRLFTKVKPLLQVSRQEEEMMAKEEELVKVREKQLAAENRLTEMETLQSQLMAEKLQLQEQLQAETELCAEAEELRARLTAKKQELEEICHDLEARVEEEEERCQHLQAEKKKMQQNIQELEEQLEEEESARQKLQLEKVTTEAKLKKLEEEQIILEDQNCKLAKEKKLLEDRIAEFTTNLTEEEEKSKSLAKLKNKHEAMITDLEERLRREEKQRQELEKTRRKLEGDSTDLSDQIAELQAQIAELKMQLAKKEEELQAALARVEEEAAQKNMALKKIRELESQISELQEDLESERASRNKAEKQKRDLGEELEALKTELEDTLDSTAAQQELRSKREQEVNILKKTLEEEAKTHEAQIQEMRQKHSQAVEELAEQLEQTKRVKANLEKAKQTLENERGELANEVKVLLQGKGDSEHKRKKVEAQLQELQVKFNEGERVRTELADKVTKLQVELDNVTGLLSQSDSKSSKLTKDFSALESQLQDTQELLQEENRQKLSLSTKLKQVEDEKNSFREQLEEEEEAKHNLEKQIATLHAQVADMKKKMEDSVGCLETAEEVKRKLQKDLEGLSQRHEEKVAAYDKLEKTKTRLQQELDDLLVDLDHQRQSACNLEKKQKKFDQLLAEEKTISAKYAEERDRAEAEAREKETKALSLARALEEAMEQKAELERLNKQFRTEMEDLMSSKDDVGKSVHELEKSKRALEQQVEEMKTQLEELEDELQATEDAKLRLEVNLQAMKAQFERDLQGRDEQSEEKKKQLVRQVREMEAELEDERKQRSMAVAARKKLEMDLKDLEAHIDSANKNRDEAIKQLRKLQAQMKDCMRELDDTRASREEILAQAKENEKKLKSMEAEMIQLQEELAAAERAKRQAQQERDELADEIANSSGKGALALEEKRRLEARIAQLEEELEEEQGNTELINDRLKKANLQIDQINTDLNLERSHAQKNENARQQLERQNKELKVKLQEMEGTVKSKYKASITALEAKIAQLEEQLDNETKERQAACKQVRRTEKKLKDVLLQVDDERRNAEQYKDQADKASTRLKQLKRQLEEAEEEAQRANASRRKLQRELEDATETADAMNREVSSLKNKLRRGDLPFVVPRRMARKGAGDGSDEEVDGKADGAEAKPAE

SMILES | target or system | test | system | setting | how to read | endpoint | result
CN1CCN(S(=O)(=O)c2cc([N+](=O)[O-])ccc2N(CCOS(C)(=O)=O)CCOS(C)(=O)=O)CC1 | – | – | NSG mice, sample BG PDX | intraperitoneal, 25 mg/kg weekly x3 | reference: vehicle | EFS delay (T-C) | 255 days
CC[C@H](C)[C@@H]1NC(=O)[C@@H]2CCCN2C(=O)[C@H](CC(C)C)NC(=O)[C@H](CC(C)C)NC(=O)CNC(=O)[C@@H](NC(=O)[C@@H](NC(=O)[C@H](CC(=O)O)NC(=O)CNC(=O)[C@@H](NC(=O)[C@H](C)NC(=O)CNC(=O)[C@H](CCCCN)NC(=O)[C@H](CC(C)C)NC(=O)[C@H](CC(C)C)NC(=O)[C@H](CCCCN)NC(=O)CNC(=O)[C@@H](NC(=O)[C@@H](N)CC(C)C)C(C)C)C(C)C)C(C)C)CSSC[C@@H](C(=O)O)NC1=O | – | RNA-seq, item: Fam228a | mouse, traumatic brain injury model, frontal cortex and hippocampus | dose not given | reference: TBI alone | log2 fold change | 1.26
CC(C)CCCCCCCCC[C@@H]1CC(=O)N[C@@H](CCC(=O)O)C(=O)N[C@@H](CC(C)C)C(=O)N[C@H](CC(C)C)C(=O)N[C@@H](C(C)C)C(=O)N[C@@H](CC(=O)O)C(=O)N[C@H](CC(C)C)C(=O)N[C@@H](CC(C)C)C(=O)O1 | – | calcein leakage | DOPC/DOPG/CHOL liposomes | concentration not given, together with: 40 mM CaCl2 | – | fusion time constant | 26 ± 7 min
O=C(O)/C=C/C(=O)O.Oc1cccc2[nH]cc(CCNCc3ccccc3)c12 | – | – | C57BL/6J mice | subcutaneous, 30 mg/kg | reference: pre-session baseline | body temperature change | -2.2 ± 0.5 °C
CS(=O)(=O)c1ccc(-c2nnc(/C=C/c3nnc(-c4ccc(C#N)cc4)o3)n2-c2ccccc2Cl)nc1 | – | RNA-seq GSEA, item: HALLMARK_MYC_TARGETS_V2 | organoids, small intestinal, Apc Q1405X, mouse | dose not given, knockout organoids | reference: DMSO, direction not given | normalized enrichment score | -1.8
c1cncc([C@@H]2CCCN2)c1 | – | radioligand binding | rat brain | 50 µM, BZP site, PDSP screen | – | inhibition | 5.71%
CC12C(=O)C(C)(C(c3ccccc3)=C1c1ccccc1)C1(Br)C(=O)N(CCNCCN)C(=O)C21.O=C(O)C(F)(F)F.O=C(O)C(F)(F)F (centres unmarked) | – | HPLC, item: CO-release by-product | TRIS-sucrose buffer | pH 7.4, 37 °C | – | time to 50% conversion | 75 min and 63 min and 65 min and 77 min and 95 min
C[C@H]1CN(c2n[nH]c3nc(N[C@H]4CC[C@H](NS(=O)(=O)CCC(F)(F)F)CC4)ncc23)CCO1 | Myosin-9 (MYH9, Homo sapiens, UniProt P35579) | inhibitor, Kinobeads competition profiling | – | 0.032 µM | reference: vehicle | relative abundance | 0.88
COc1ccc(CCC2CCCC(CCc3ccc(OC)cc3)N2C[C@@H](O)CO)cc1.Cl (stereo in doubt) | – | methamphetamine-evoked dopamine release | rat striatal slices | 100 µM, together with: methamphetamine 5 µM | – | time of significant inhibition | 45 to 65 min
C=CC(=O)Nc1cc(Nc2ncc(Cl)c(Nc3ccccc3C(=O)C(=O)N(C)C)n2)c(OC)cc1N1CCN(C)CC1 | – | RECIST v1.1 best response | human EGFR T790M NSCLC | oral, 50 mg/day, per-protocol set | – | patients with stable disease | 66.7%
CC(C)(C)Cn1c(N)nc2ccc(-c3[nH]c(C(C)(C)C)nc3-c3ccc(F)cc3)nc21 | human coronavirus OC43 | virus-induced cell killing | MRC-5 | maximum over 10 doses | – | maximum inhibition | 0%
COc1c(O)cc(O)c2c(=O)cc(-c3ccccc3)oc12 | – | – | rat plasma 10% | 100 µg/mL, together with: OS 1 µg/mL | – | inhibition of OS hydrolysis | > 50%
CC(=O)c1c(C)c2cnc(Nc3ccc(C4CCN(CCS(C)(=O)=O)CC4)cn3)nc2n(C2CCCC2)c1=O | – | tumour growth | rat, MCF7 breast cancer model | oral, 20 mg/kg twice daily, 28 days | – | T/C | 18%
C/C=C1\NC(=O)C(C(C)O)NC(=O)C(CCCN)NC(=O)C(CCO)NC(=O)C(CCN)NC(=O)C(CCN)NC(=O)C(NC(=O)CC(O)CCCCCCCCCCC)COC(=O)C(C(O)CCl)NC(=O)C(C(O)C(=O)O)NC1=O (centres unmarked) | – | calcein leakage | DOPC/CHOL liposomes | concentration not given, together with: 20 wt% PEG-8000 | – | fusion time constant | 5 ± 1 min
Cc1cn(-c2cc(NC(=O)c3ccc(C)c(Nc4nccc(-c5cccnc5)n4)c3)cc(C(F)(F)F)c2)cn1 | – | – | human patients | dose not given, 6 months vs baseline, within treated group, unit not given | reference: baseline | ADAS-Cog maze time change | 0.04
CC[C@@H](C)[C@@H](NC(=O)[C@@H](Cc1ccc(O)cc1)NC(=O)[C@H]1CCCN1C(=O)[C@@H](CCCNC(=N)N)NC(=O)[C@H](N)Cc1c[nH]cn1)C(=O)N[C@H](C)C(=O)N[C@H](Cc1c[nH]cn1)C(=O)N[C@H](CCCNC(=N)N)C(=O)N[C@H](CCCCNC(=O)c1cccc(S(=O)(=O)F)c1)C(=O)N[C@H](Cc1ccc(O)cc1)C(=O)N[C@H](CO)C(=O)N[C@H](Cc1ccccc1)C(N)=O | – | – | mouse orthotopic GL261-Luc glioma | intraperitoneal, 3.9 mg/kg, no detectable bioluminescence | – | tumour-free survival | > 90 days
CN(C)Cc1ccc(-c2nc3cccc4c3n2CCNC4=O)cc1 | human coronavirus OC43 | virus-induced cell killing | MRC-5 | maximum over 10 doses | – | maximum inhibition | 0%
COc1ccc(-c2ccc3ncc4c(c3c2)n([C@@H]2CCN(C)CC2(F)F)c(=O)n4C)cn1 | – | – | mouse, sample A orthotopic PDX | 7.5 mg/kg x 10, no radiation | – | survival | 23.4 ± 0.5 days
C[C@]1(CO)Cc2ncn(-c3ccc(C#N)c(Cl)c3)c2C(=O)O1 | – | aldosterone synthesis, inhibitor, item: potassium | healthy Japanese adults, urine | 3 mg, 0-24 h after first dose, multiple rising dose | – | urinary excretion | 39.4 mmol
CCCCC/C=C\C/C=C\C/C=C\C/C=C\CCCC(=O)NCCO | – | anti-allodynic effect, electronic von Frey | mouse, CFA inflammatory pain | i.p., 20 mg/kg | – | time to peak effect | 10 min
Cc1cn([C@H]2O[C@@H](CO[P@@](=O)(N[C@@H](C)C(=O)OC(C)C)Oc3ccccc3)[C@H](O)[C@H]2F)c(=O)[nH]c1=O | – | item: detectable HBV DNA | adults with chronic hepatitis B | 25 or 50 mg, week 24, after treatment discontinuation | – | virologic relapse | 89%
C[C@H]1O[C@@H](O[C@H]2CC[C@@]3(C)[C@@H](CC[C@]4(C)[C@@H]3C=C[C@]35OC[C@@]6(CCC(C)(C)C[C@H]63)[C@@H](O)C[C@]54C)[C@]2(C)CO)[C@H](O)[C@@H](O[C@@H]2O[C@H](CO)[C@@H](O)[C@H](O)[C@H]2O)[C@H]1O | – | item: SCD-1 | chronic-plus-binge ethanol-fed mice, AAV8-TBG-Null, liver | dose not given, high dose, unit not given | reference: AAV8-TBG-Null ethanol group | mRNA level | 0.16 and 0.191 and 0.168 and 0.1
CCCCC1(CCCC)CN(c2ccccc2)c2cc(SC)c(OCC(=O)N[C@@H](C(=O)NCC(=O)O)c3ccccc3)cc2S(=O)(=O)C1 | – | item: HDL cholesterol | human, serum | 20 mg once daily, day 5 | – | serum HDL-C | 50.3 mg/dL

Excerpt of the above:
SMILES | target or system | test | system | setting | how to read | endpoint | result
C[C@H]1CN(c2n[nH]c3nc(N[C@H]4CC[C@H](NS(=O)(=O)CCC(F)(F)F)CC4)ncc23)CCO1 | Myosin-9 (MYH9, Homo sapiens, UniProt P35579) | inhibitor, Kinobeads competition profiling | – | 0.032 µM | reference: vehicle | relative abundance | 0.88
COc1ccc(CCC2CCCC(CCc3ccc(OC)cc3)N2C[C@@H](O)CO)cc1.Cl (stereo in doubt) | – | methamphetamine-evoked dopamine release | rat striatal slices | 100 µM, together with: methamphetamine 5 µM | – | time of significant inhibition | 45 to 65 min
C=CC(=O)Nc1cc(Nc2ncc(Cl)c(Nc3ccccc3C(=O)C(=O)N(C)C)n2)c(OC)cc1N1CCN(C)CC1 | – | RECIST v1.1 best response | human EGFR T790M NSCLC | oral, 50 mg/day, per-protocol set | – | patients with stable disease | 66.7%
CC(C)(C)Cn1c(N)nc2ccc(-c3[nH]c(C(C)(C)C)nc3-c3ccc(F)cc3)nc21 | human coronavirus OC43 | virus-induced cell killing | MRC-5 | maximum over 10 doses | – | maximum inhibition | 0%
